# Results collected from several papers.
# Each numbered part is a random draw from the data of one study; scales do not carry over between parts.

# Set 1
# Target: Histone acetyltransferase KAT6A, both winged helices, GST fusion (KAT6A, Homo sapiens, UniProt Q92794, residues 1-181)
# Technique: protein binding microarray
# Form: double-stranded DNA, one strand shown
# Matrix: in vitro
# Concentration: not given
# Notes: 8-mer, flanks averaged, mean of 2 arrays, mostly near background
# Baseline: not given
# Direction: higher = stronger binding
# Target sequence (chain): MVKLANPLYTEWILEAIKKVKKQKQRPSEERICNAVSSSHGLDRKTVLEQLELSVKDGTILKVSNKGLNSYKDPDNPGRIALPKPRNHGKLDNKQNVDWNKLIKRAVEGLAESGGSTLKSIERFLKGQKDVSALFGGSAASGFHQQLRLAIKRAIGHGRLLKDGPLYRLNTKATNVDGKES
Oligonucleotide,E-score
CGAAATCA,-0.0297
ATACTCGA,-0.0689
ATCTCAAT,-0.0716
CTACCACA,-0.206
AAATGGGA,-0.235
ATCTATAA,0.00556
ATAACTAC,0.0244
CTGACCTA,-0.211
ATACGTCA,0.0863
CTAAGTTC,-0.176
CTGCGTAC,0.0902
AATAAAGT,-0.0774
CATACTAA,-0.0926
ATCTTCAC,-0.0541
CCGCCTAG,0.107
CTGACGAC,-0.0707
ACTACCCC,-0.182
GAATTCGA,-0.0613
CCGGTTCC,0.166
GCCGTGAA,0.326
CACGGTGC,0.0578

# Set 2
# Target: RING finger protein unkempt homolog, zinc fingers 1-6, SBP tag (UNK, Homo sapiens, UniProt Q9C0B0, residues 30-357)
# UniProt Q9C0B0, sequence (30-357, looked up): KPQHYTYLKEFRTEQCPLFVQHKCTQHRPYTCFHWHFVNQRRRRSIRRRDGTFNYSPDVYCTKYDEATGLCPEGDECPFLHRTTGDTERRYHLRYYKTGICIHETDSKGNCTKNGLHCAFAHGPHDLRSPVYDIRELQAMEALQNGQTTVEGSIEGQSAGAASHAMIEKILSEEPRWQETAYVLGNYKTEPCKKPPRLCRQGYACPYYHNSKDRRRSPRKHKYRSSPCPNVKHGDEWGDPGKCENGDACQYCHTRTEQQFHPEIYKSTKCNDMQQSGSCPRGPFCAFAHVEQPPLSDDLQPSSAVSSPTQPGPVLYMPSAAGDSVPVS
# Technique: RNA Bind-n-Seq
# Form: RNA
# Matrix: in vitro
# Concentration: 100 nM
# Notes: RNA with constant flanks, vertebrate orthologous sites, ends assumed
# Baseline: input RNA pool
# Direction: higher = stronger binding
# Shared flanks, not repeated: GGGAGUUCUACAGUCCGACGAUC … CAACAGAGGAUUGAGCAUCA
Oligonucleotide,bound/input enrichment
UCAUUGUACUGCCAGCAUCAUCCUAGUGUUAAACCAGCCGCUGUGAUAACUAGUGUGUGCUAGUAGAAUUAUUUACUAUUAUUACCUUUUAAACUAUGCGCUUUGCCCAAUACUCGAAAG,2.54 ratio
CCUUAUUUCUUUCUUCCUGACUUUCUUUUUUCUUUCGUUUCUUUUUUCUUUUUUUUUUGGUAGUUGUUGUUACCCACGCCAUUUUACGUCUCCUUCACUGAAGGGCUAGAGUUUUAACUU,2.62 ratio
AUCUCGUGCCUCUCCCCACGGGGGGUGGGGGACGCUGAAUGACCCUCAGCUGUUCCAAUCCAGUGGGUUUUUUUGAUUUGUUUGUUUUUGUUUUUUUUUUUUUAUUAAAGAAAUUACUGU,0.484 ratio
CAGGGUAUACCUGUGGGGCACUGCUGGCCGCUUAUUGUUGUUUAAUUUGUGACCUUGACAUCAUAGAUAGGCUUUUUUUUUUAAUUUAAAGAUAGUAAGACCUAAUUCACUAAAAUUUAU,0.858 ratio
CAACGCCAUGGUGGAAGGCUCCGAGCUCAAAAAGGUUCGAUCCAACUCCAGGGUGUAUCACCGAUACUUCCUUUUGGAUGCCGAUAUGCAGUCUCUACGAUGGGAGCCUUCGAAAAAGGA,0.154 ratio
UCCUCAACUUGUUCUAGCUUGUGAUCCUUCAAAGUUGGGUCAUACAUUAGUGCUAGAUACUAGAAAUAUUCACUUUUCCACUGAUCAGAGAGACAGACAUUAAAAACAAAAAUAGAAGAA,1.98 ratio
AAGAGAUUGUCAGUUUGUAUGCAUAUUACCAUGUUCUCUCUGUUGUGUUUGCUCAUCAGGAGUCCCACCUCUUUCAUUUCACAUCGUUCUGUUGCAUGAAGUUGCCCUUUUACAAGAGAA,0.252 ratio
CCCUCUGAACCCCAUAUCUUCCGUCUCAUAGUGCAGAAGUAGUCUUUUCAAUUAUAUUACUAGUGGACUUGUUUUAAUUUUAGGGAAACUUUCAGUACAGAUACUGUGAGCUUACAUGGA,2.38 ratio
CUCUAUGGGCCUCGCAGAGUUGAAAUAAUGGAAGAGGAAAGUGAAUAGUAAUCUUCAUUUUAGUAUUUAUGCUUAGAUGUGAAAAUAAAUGUUAUUUGUUGAUCAUUUCUAUAAUCCAGA,0.533 ratio
GUUGUGAUCCAUUUAACAUACACAAAAAGCUAGCCAAAAAAAAUUUGCAUGUAAUUGACUUAGAUGAUGCCACUUUUCUGAGUGCAAAAUUUGGAAGACAGCUUGUACCUGGUUGGAAAC,0.838 ratio
GUAUGUAGAGAAAAAUUUUCAUUGACCCCCCCCCAUUGUGAAAUUCCCUAGCAGUUUAUUUAGAAUCUUAAAUUUUCUAAUUAAAGCUCAUUGUAUUAGUCAUUUUUAGCAUAAUUAAAA,4.56 ratio

# Set 3
# Target: Prothrombin, mature alpha-thrombin (F2, Homo sapiens, UniProt P00734)
# Technique: aptamer microarray, sandwich
# Form: DNA with 2'F-ANA
# Matrix: in vitro
# Concentration: 200 nM
# Notes: whole 15-mer aptamer, many near background
# Together with: Cy3 exosite-II aptamer, 400 nM
# Direction: higher = stronger binding
# Oligonucleotide: GGTTGGTGTGGTTGG
Modification,mean fluorescence intensity
2'F-ANA at 1 2 3 8 11 12 14,97 a.u.
2'F-ANA at 1 3 4 8 12 15,534 a.u.
2'F-ANA at 1 2 3 4 8 9 14 15,74.3 a.u.
2'F-ANA at 4 9 10 11 12,129 a.u.
2'F-ANA at 2 3 4 6 8 12 13 14 15,252 a.u.
2'F-ANA at 2 3 4 6 8 9 10 11 13 14,138 a.u.
2'F-ANA at 4 5 6 7 8 11 12 14,48.1 a.u.
2'F-ANA at 2 3 4 7 8 10 12 13 14 15,186 a.u.
2'F-ANA at 2 3 7 10 12,544 a.u.
2'F-ANA at 3 4 9 12 13,689 a.u.
2'F-ANA at 7 8 10 12 15,228 a.u.
2'F-ANA at 2 5 8 9 10 11 12 13 15,54.8 a.u.
2'F-ANA at 1 2 3 4 5 7 9 10 12 14 15,46.5 a.u.
2'F-ANA at 1 5 6 7 11 12,86.4 a.u.
2'F-ANA at 1 2 3 4 7 9 11 13,272 a.u.
2'F-ANA at 2 5 9 10 12 13 14 15,46.3 a.u.
2'F-ANA at 3 4 8 10 11 13 14,305 a.u.
2'F-ANA at 1 2 3 6 7 8 9 13 15,142 a.u.
2'F-ANA at 1 5 6 7 10 13 14,50.2 a.u.
2'F-ANA at 1 4 5 7 12 13 14 15,43.1 a.u.
2'F-ANA at 1 2 3 5 11 14 15,64.9 a.u.
2'F-ANA at 4 6 8 9 10 11 14 15,56.1 a.u.
2'F-ANA at 2 8 9 10 12 14,89.7 a.u.
2'F-ANA at 1 3 4 8 9 11 12 13 14 15,68.9 a.u.
2'F-ANA at 2 5 6 8 9 10 14,45.8 a.u.

# Set 4
# Target: RNA binding protein fox-1 homolog 2, RRM domain, GST-SBP tag (RBFOX2, Homo sapiens, UniProt O43251-10, residues 100-194)
# Technique: RNA Bind-n-Seq
# Form: RNA
# Matrix: in vitro
# Concentration: 365 nM
# Notes: natural RNA segment, single round, ends assumed
# Baseline: no-protein control
# Direction: higher = stronger binding
# Shared flanks, not repeated: GGGAGUUCUACAGUCCGACGAUC … UGGAAUUCUCGGGUGCCAA
# Construct (chain): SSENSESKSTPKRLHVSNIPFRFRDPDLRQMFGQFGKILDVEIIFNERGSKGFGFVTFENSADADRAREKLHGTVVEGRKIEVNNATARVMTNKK
Oligonucleotide,RBNS enrichment (R)
AAGAUAAUUCAACCAUCUAAUCAAAAUGGAUCUGGAUUACUAUGUAAAUUCACAGCAGUAAGAUAAUAUAAAUUUUGUUGAAUGUAUUAACAUCAUAUGGUCUGAAAAUG,0.333
UAUAUAUGUAUAUAAAAUAUAUAUUGCAUAGGACAGACUUAGGAGUUUUGUUUAGAGCAGUUAACAUCUGAAGUGUCUAAUGCAUUAACUUUUGUAAGGUACUGAAUACU,0.398
UGAAGAAAGCCCCUGAGAGAUGCACAUGGAGCCUGGAUCACUUCAUCCUCACACCUGUUCCCUCCAGAGGGCCCGGCUCCCUGCAUCAGGCAGCAGCCGCCCAUCUCGCC,0.337
GAAAAGUACUGGAAAGAUCCAGACAUGUUCUAUCCUGAGCGAUUUCUGGACAGCAAUGGAUAUUUUACUAAAAAGGAAGCUUUGAUUCCUUUUUCUCUAGGGAGAAGACA,0.241
UUUUGAGAAUUUUUUUGCCCGUCCCUUUGGUUUCAAAAGUUUCACGUCUUGGUGCCUUUUGUGUGACACGCCUUGCCGAUGGCUUGACAUGCGCAGAUGUGAGGGACACG,5.5
GUUGAGGAAGCUGCUCCAGAAGCGCCUCGGAAGGGGAGCUCUCAUCAUGGCGCGUGCUGCUGCGGCAUAUGGACUUUUAAUAAUGUUUUUGAAUUUCGUAUUCUUUCAUU,0.311
UUACCGGGAGGCAGGCUGUGCACAGAACCCUCUGCUGUGGAGGCCAGAGACCACCACCAGGCCCGCUCCCCACUGAGCCACUUAAGAUGAGCCCCUCAUUUGCACACAGU,0.673
GCACGCCGUGCGCGACGGCUGACCUGGCAGCGUAGAGUGGGAUGAUCUAAAACUAAAGCUGCCUGUGCUUGUUUGUAAAGCUUAUACUCCCAGAAUUAGCCUGAGCUGCU,4.14
UAAGUUUAAACUCUUCCGAAGAUUAUGAAUGGGUCAGCACAAAUUUUUAGGCAACUGCUUUUUCCAUGUUCUGAGAUCUACGGGCUACAACAAAUUUUAUCAGCAGUGUU,0.919
UGGACAUGAUUUGAGAUGUAGAAGCCAUUUUUUAUUAAAUAAAAUGCUUAUUUUAGGCUCCGUCCCCAUUGUGGCUCUGGUCUCGAGGCCAGUGCUUGAGUGUGCUCUGA,0.752
GGAAAAGCCUUUCAGCUCACCCAUGGCUGCUGUGACUCCUACCAGGGCUUUCUUGGCUUUGGCGAAGGUCAGUGUACAGACAUUCCAUGGUACCAGAGUGCUCAGAAACU,0.205
CCACCUCCCAUCUGCUGCCCGGAAGGCACUGAGCAGACAGCUUCAGUAUUCAGCGAGCACGCGAACCCACGCUUCUUACCUUUACCUUGAGCUGGGACUGGCUUGGGGCU,0.758

# Set 5
# Target: Sal-like protein 4, full length isoform A (SALL4, Homo sapiens, UniProt Q9UJQ4, residues 1-1053)
# UniProt Q9UJQ4, sequence (whole entry, looked up): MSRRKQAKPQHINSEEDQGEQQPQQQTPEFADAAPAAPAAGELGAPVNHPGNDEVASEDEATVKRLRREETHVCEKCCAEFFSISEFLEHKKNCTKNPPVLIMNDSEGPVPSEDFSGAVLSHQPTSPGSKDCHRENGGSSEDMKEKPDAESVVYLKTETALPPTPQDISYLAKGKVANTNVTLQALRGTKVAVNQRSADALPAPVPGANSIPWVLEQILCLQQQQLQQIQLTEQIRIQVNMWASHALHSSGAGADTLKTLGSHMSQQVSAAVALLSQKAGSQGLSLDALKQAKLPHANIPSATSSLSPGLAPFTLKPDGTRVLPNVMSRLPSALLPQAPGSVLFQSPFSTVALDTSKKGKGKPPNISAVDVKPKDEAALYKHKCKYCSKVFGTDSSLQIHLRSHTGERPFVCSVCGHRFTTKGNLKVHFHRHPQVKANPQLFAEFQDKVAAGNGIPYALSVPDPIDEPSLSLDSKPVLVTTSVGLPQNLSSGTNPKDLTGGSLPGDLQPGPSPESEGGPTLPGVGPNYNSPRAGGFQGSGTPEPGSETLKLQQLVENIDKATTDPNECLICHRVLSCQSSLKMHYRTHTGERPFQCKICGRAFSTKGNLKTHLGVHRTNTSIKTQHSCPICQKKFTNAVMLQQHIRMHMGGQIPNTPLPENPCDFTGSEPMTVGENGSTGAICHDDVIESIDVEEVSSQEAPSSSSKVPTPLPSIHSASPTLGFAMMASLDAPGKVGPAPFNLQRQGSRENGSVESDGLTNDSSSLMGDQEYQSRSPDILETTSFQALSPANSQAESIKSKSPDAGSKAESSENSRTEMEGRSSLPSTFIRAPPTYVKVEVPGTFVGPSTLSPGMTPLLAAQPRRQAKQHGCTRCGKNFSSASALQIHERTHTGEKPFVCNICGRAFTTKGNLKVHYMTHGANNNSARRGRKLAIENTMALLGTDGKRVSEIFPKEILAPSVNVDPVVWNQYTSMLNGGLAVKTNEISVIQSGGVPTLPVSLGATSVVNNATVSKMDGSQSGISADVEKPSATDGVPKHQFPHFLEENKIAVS
# Technique: universal PBM
# Form: double-stranded DNA, one strand shown
# Matrix: in vitro
# Concentration: 600 nM
# Notes: 8-mer, flanks averaged, mean of replicates
# Direction: higher = stronger binding
Oligonucleotide,E-score
CCAGTCCG,-0.237
CCTTTTCG,0.105
GCGTCCGA,-0.298
ACGCTTGA,0.0448
CCATGCAA,0.13
ATGGTTGG,-0.049
GAAGCCCA,-0.193
GGGTAACA,-0.0852
CACACGCG,0.038
TTAGCCAA,0.0512
ACTAACCA,0.0531
AACCTCCG,-0.207
ACCGTACA,0.0597
CAGAGCTG,-0.236
CGCCAATA,0.145
CCCTGAGA,-0.243
TAGGGTCA,-0.171

# A few entries again (set 3):
Modification,mean fluorescence intensity
2'F-ANA at 1 2 3 4 5 7 9 10 12 14 15,46.5 a.u.
2'F-ANA at 2 3 4 7 8 10 12 13 14 15,186 a.u.
2'F-ANA at 1 4 5 7 12 13 14 15,43.1 a.u.
2'F-ANA at 2 5 6 8 9 10 14,45.8 a.u.
2'F-ANA at 2 8 9 10 12 14,89.7 a.u.
2'F-ANA at 3 4 8 10 11 13 14,305 a.u.
